Experimental data of several laboratories.
Parts stem from different laboratories: compare values within a part only. Values joined by “and” are separate records of one study, mostly repeats; a detail may differ.
UniProt P0C264, sequence (whole entry, looked up): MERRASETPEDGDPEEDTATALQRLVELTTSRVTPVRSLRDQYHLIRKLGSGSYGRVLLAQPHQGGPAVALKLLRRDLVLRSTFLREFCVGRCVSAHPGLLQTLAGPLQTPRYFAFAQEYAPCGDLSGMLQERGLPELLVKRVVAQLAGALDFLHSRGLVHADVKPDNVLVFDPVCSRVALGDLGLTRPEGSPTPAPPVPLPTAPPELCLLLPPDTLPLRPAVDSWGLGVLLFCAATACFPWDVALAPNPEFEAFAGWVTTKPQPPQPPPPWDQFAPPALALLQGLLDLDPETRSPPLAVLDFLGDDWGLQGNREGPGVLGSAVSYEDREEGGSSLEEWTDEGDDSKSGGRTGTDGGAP
UniProt P49760, sequence (whole entry, looked up): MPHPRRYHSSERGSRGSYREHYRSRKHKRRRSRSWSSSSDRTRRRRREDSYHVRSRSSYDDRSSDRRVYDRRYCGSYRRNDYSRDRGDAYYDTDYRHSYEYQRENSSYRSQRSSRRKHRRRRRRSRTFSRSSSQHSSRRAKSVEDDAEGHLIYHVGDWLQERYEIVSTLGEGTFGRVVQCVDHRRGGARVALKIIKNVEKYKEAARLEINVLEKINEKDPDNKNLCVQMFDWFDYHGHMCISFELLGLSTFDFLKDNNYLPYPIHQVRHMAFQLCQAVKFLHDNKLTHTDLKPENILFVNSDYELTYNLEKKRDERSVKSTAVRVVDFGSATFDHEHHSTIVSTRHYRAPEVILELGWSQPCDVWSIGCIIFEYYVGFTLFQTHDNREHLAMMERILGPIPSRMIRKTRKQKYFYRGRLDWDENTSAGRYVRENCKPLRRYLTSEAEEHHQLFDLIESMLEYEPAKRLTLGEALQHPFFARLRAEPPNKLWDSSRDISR
UniProt P53778, sequence (whole entry, looked up): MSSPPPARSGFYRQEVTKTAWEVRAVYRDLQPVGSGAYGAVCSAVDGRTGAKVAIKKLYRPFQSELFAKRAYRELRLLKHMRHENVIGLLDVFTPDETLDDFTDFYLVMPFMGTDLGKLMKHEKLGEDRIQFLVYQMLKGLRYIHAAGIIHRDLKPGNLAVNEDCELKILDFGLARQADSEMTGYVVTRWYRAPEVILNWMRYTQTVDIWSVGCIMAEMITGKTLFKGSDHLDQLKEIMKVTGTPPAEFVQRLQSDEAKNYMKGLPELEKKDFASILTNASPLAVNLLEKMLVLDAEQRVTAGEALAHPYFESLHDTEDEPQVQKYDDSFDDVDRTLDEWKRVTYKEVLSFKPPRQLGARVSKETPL

Study 1 — action: agonist
Target: Beta-1 adrenergic receptor (ADRB1, Homo sapiens, UniProt P08588)
UniProt P08588, sequence (whole entry, looked up): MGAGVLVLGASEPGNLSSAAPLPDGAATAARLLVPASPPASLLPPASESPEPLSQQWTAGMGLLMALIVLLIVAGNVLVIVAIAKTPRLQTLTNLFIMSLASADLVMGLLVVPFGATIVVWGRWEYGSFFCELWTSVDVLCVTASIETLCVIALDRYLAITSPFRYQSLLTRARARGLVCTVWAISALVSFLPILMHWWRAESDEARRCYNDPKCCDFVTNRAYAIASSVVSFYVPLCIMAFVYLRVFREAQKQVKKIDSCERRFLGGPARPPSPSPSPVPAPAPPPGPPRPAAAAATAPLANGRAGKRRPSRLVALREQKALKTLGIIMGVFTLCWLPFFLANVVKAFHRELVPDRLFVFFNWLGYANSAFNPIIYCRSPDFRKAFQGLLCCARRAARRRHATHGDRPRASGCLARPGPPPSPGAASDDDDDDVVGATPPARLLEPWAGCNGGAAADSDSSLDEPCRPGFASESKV
| SMILES | EC50 [µM] |
| --- | --- |
| O=C(Nc1cccc(C(F)(F)F)c1)N[C@H]1CO[C@H]2[C@@H]1OC[C@@H]2Nc1nccc(-c2ccc(-c3ccccc3)cc2)n1 | ≥ 100 |
| COc1ccc(-c2cc(=O)oc3cc(OCC(N)=O)ccc23)cc1 | ≥ 100 |
| OC(COc1ccc(CN2CCC(F)(F)CC2)cc1)CN1CCCCC1 (stereo not shown) | ≥ 100 |
| COc1cc(OC)c2c(OC)c(-c3ccc4c(c3)OCO4)c(=O)oc2c1 | ≥ 100 |
| CN(C)c1cccc(C(=O)Nc2ncc(-c3cnn(C)c3)c3c2OCC3)c1 | ≥ 100 |
| CS(=O)(=O)N(CC(O)Cn1c2ccccc2c2ccccc21)c1ccccc1I (stereo not shown) | ≥ 100 |
| COc1cc(/C=C/C(=O)c2c(O)ccc3c(C)cc(=O)oc23)ccc1O | ≥ 100 |
| Cc1cc(=O)oc2cc(CN(C)CC(C)N3CCOCC3)ccc12 (stereo not shown) | ≥ 100 |
| CCn1c(=O)cc(N2CCN(c3cccc(Cl)c3)CC2)[nH]c1=O | ≥ 100 |
| Cc1nn2cc(CCNCC3(O)CNCCOC3)nc2s1 (stereo not shown) | ≥ 100 |
| COCCN1CCNc2nc(COc3cccc(N4CCOCC4)c3)n(Cc3ccccc3)c2C1=O | ≥ 100 |
| Cc1csc(-c2nnc(Nc3ccc(Oc4ncccc4-c4ccnc(N)n4)cc3)c3ccccc23)c1 | ≥ 100 |
| Cc1ccc2c(CC(=O)N3CCOc4ccc(CN5CCOCC5)cc4C3)cc(=O)oc2c1 | ≥ 100 |
| O=C(Nc1ccc(-c2csc3c(=O)cc(N4CCOCC4)oc23)cc1)c1ccc(F)c(F)c1Nc1ccc(I)cc1F | ≥ 100 |
| COc1ccccc1C(=O)Nc1ccc([C@@H](O)[C@H]2COCC(=O)N2Cc2ccc(F)cc2)cc1 | ≥ 100 |

Study 2 — method: competition with immobilised ligand
Structure (SMILES): CNC(=O)c1ccc(Nc2ncc(C(F)(F)F)c(NCc3nccnc3N(C)S(C)(=O)=O)n2)cc1
| target | read-out | concentration | remaining binding [%] |
| --- | --- | --- | --- |
| CASK (Homo sapiens, UniProt O14936) | cell-free assay | 0.1 µM | 88 |
| TXK (Homo sapiens, UniProt P42681) | binding | 0.1 µM | 98 |
| STK38 (Homo sapiens, UniProt Q15208) | cell-free assay | 0.1 µM | 86 |
| CAMK2B (Homo sapiens, UniProt Q13554) | cell-free assay | 0.1 µM | 86 |
| BMX (Homo sapiens, UniProt P51813) | cell-free assay | 0.1 µM | 71 |
| EIF2AK1 (Homo sapiens, UniProt Q9BQI3) | cell-free assay | 0.1 µM | 85 |
| MAP3K19 (Homo sapiens, UniProt Q56UN5) | binding | 1 µM | 1.7 |
| MERTK (Homo sapiens, UniProt Q12866) | cell-free assay | 0.1 µM | 54 |
| ULK1 (Homo sapiens, UniProt O75385) | cell-free assay | 0.1 µM | 47 |
| PKN2 (Homo sapiens, UniProt Q16513) | cell-free assay | 0.1 µM | 37 |
| Tyrosine-protein kinase JAK1, JH1 (JAK1, Homo sapiens, UniProt P23458) | cell-free assay | 0.1 µM | 28 |
| DYRK1B (Homo sapiens, UniProt Q9Y463) | cell-free assay | 0.1 µM | 79 |
| MAPK6 (Homo sapiens, UniProt Q16659) | cell-free assay | 0.1 µM | 71 |
| MAPK12 (Homo sapiens, UniProt P53778) | cell-free assay | 0.1 µM | 67 |
| PIK3CG (Homo sapiens, UniProt P48736) | cell-free assay | 0.1 µM | 100 |
| SLK (Homo sapiens, UniProt Q9H2G2) | cell-free assay | 0.1 µM | 53 |
| SBK3 (Homo sapiens, UniProt P0C264) | cell-free assay | 0.1 µM | 100 |
| CLK2 (Homo sapiens, UniProt P49760) | binding | 1 µM | 0 |
| Non-receptor tyrosine-protein kinase TYK2, JH2 (TYK2, Homo sapiens, UniProt P29597) | cell-free assay | 0.1 µM | 87 |

Study 3 — read-out: enzyme activity; action: inhibitor; concentration: 0.5 µM; reference: control
Target: High affinity nerve growth factor receptor (NTRK1, Homo sapiens, UniProt P04629)
UniProt P04629, sequence (whole entry, looked up): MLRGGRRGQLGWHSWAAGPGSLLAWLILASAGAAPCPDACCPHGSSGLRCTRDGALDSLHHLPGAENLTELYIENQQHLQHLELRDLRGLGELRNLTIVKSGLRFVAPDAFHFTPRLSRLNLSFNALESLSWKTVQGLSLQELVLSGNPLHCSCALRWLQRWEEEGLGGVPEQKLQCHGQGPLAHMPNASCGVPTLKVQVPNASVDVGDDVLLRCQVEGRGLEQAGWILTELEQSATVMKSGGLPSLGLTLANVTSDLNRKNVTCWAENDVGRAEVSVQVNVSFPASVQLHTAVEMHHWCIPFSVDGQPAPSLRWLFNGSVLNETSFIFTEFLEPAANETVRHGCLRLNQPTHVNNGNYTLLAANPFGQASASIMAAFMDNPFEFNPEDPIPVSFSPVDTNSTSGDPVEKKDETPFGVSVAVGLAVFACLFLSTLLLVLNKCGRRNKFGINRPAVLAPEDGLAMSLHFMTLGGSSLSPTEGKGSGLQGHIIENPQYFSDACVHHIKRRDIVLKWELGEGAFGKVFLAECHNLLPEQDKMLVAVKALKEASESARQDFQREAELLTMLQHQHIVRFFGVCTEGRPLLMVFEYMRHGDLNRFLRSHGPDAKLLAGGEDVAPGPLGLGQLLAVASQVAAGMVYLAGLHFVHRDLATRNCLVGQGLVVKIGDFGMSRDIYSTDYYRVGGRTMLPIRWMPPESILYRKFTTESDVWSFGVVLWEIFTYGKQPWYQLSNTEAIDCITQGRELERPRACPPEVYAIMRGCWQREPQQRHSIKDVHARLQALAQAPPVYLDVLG
| SMILES | remaining activity |
| --- | --- |
| Cc1nc2cc3nc(-c4cccs4)cnc3cc2n1C | 113% |
| COc1cc2ncnc(Nc3ccc(O)c(Br)c3)c2cc1OC | 96.4% |
| CCN(CC)CCNC(=O)c1c(C)[nH]c(/C=C2\C(=O)Nc3ccc(F)cc32)c1C | 11.5% |
| Cc1cc2ncc(-c3ccccc3)nc2cc1C | 105% |
| O=C(NC(NC(=S)Nc1ccc(F)c([N+](=O)[O-])c1)C(Cl)(Cl)Cl)C(c1ccccc1)c1ccccc1 (stereo not shown) | 107% |
| Cc1cn(-c2cc(NC(=O)c3ccc(C)c(Nc4nccc(-c5cccnc5)n4)c3)cc(C(F)(F)F)c2)cn1 | 91.4% |
| O=C1c2ccccc2-c2n[nH]c3cccc1c23 | 97.1% |
| O=c1cc(-c2cccc3c2Sc2ccccc2S3)oc(N2CCOCC2)c1 | 99.4% |
| CCN(CC)C(=O)c1ccc(Nc2nc(OCC3CCCCC3)c3[nH]cnc3n2)cc1 | 81.4% |
| N#Cc1c(NC(=O)c2cccc3ccccc23)sc2c1CCCC2 | 105% |
| CN([C@@H](Cc1ccc(OS(=O)(=O)c2cccc3cnccc23)cc1)C(=O)N1CCN(c2ccccc2)CC1)S(=O)(=O)c1cccc2cnccc12 | 111% |
| c1ccc(-c2[nH]ncc2-c2ccnc3ccccc23)nc1 | 102% |
| N#C/C(=C\c1ccc(O)c(O)c1)C(=O)NCc1ccccc1 | 98.4% |
| c1ccc(-c2cnc(Nc3ccc(OCCN4CCCC4)cc3)s2)cc1 | 54.1% |
| COc1cc2c(cc1OC)-c1[nH]nc(Nc3cccc(F)c3)c1C2 | 98.8% |
| COc1cc2ncnc(Nc3cccc(Cl)c3)c2cc1OC | 92.6% |
| O=C1C(Cl)=C(N2C(=O)CCC2=O)C(=O)c2ccccc21 | 97% |
| Cn1nc2c3c(cccc31)C(=O)c1ccccc1-2 | 95% |
| O=C(Nc1cccc(Nc2nccc(Nc3cccc(C(F)(F)F)c3)n2)c1)C1CC1 | 98.1% |
| CN(C)C[C@H]1CCn2c(c(C3=C(c4cn(C)c5ccccc45)C(=O)NC3=O)c3ccccc32)C1 | 108% |
| CCN(CC)CCNC(=O)c1c(C)[nH]c(/C=C2\C(=O)Nc3ccc(Cl)cc32)c1C | 8.73% |
| Ic1cccc(CSc2nnc(-c3ccncc3)o2)c1 | 96% |
| Nc1cccc(-c2cc3c(Oc4cccc(O)c4)ncnc3[nH]2)c1 | 90.5% |

Study 4 — read-out: enzyme activity; action: inhibitor; concentration: 77 µM; reference: untreated
Target: DNA polymerase theta, ATPase domain (POLQ, Homo sapiens, UniProt O75417)
UniProt O75417, sequence (whole entry, unmodified, looked up): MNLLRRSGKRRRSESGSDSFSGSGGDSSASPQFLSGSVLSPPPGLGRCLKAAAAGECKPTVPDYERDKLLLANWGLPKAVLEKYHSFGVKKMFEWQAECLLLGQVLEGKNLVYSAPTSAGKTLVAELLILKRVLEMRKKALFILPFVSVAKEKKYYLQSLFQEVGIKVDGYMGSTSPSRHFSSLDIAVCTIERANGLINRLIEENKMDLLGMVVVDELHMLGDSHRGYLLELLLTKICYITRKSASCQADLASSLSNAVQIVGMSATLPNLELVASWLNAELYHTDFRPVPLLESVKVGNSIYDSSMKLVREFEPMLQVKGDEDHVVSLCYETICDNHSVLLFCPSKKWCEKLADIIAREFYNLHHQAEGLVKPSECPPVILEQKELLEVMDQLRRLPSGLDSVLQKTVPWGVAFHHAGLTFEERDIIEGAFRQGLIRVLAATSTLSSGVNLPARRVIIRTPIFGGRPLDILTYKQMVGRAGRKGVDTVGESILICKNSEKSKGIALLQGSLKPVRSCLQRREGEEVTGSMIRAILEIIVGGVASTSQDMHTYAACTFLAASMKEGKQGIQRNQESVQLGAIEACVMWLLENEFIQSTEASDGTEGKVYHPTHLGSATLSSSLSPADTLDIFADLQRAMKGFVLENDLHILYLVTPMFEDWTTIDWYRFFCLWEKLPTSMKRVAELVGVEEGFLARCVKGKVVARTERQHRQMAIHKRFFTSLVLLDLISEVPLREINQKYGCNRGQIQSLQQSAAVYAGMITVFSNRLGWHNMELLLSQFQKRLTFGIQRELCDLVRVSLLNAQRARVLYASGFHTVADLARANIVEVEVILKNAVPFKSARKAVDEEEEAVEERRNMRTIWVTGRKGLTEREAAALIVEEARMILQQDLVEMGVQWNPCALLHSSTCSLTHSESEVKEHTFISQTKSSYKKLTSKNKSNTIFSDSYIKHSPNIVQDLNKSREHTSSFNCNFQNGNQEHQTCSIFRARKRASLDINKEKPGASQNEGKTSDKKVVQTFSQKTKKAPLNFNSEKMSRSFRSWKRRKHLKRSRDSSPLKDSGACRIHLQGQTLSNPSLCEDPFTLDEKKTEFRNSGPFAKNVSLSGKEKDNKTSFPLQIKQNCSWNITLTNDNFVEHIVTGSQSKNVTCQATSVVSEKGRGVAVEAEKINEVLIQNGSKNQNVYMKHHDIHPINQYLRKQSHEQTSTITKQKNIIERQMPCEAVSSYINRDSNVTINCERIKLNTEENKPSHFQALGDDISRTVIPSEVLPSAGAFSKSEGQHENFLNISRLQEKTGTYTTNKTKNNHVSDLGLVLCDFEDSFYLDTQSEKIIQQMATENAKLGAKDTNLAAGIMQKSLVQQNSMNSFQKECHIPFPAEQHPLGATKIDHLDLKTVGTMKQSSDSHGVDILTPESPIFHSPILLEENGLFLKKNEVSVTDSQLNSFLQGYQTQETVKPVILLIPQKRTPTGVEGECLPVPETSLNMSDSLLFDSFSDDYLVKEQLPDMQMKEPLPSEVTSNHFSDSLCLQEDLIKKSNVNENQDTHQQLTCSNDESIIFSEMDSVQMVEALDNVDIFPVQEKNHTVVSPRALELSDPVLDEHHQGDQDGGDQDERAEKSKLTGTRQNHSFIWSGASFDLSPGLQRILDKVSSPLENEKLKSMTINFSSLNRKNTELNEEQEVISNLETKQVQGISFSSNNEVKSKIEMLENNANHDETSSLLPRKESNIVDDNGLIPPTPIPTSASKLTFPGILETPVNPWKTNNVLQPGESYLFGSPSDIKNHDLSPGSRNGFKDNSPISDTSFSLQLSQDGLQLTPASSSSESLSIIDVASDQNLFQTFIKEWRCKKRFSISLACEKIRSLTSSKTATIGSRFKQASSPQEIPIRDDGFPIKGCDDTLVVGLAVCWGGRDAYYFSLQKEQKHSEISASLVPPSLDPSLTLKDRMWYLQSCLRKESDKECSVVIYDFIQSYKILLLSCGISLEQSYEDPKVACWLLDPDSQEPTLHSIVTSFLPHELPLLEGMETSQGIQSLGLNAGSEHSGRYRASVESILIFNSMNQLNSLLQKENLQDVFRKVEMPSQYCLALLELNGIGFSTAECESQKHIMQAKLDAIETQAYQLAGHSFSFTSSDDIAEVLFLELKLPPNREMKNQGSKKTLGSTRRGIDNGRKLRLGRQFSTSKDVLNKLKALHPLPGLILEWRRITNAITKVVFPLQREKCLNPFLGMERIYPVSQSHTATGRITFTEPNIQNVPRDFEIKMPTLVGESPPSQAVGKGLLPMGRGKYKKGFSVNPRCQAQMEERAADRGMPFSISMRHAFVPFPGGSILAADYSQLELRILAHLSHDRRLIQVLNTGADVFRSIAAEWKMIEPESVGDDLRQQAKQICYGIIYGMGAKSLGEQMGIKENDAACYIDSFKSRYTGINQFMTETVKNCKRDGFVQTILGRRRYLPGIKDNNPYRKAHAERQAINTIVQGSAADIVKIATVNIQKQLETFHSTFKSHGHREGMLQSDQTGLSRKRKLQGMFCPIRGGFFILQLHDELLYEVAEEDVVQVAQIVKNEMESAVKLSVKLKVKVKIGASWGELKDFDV
| SMILES | remaining activity |
| --- | --- |
| O=C(CCCCCCC(=O)Nc1ccc([C@H]2O[C@@H](CSc3nc(-c4ccccc4)c(-c4ccccc4)o3)C[C@@H](c3ccc(CO)cc3)O2)cc1)NO | 95.4% |
| Cc1ccc2c(Cl)cc(Cl)c(O)c2n1 | 108% |
| CN1CC[C@H](c2c(O)cc(O)c3c(=O)cc(-c4ccccc4Cl)oc23)[C@H](O)C1 | 109% and 79.3% and 107% and 100% |
| Cn1cc(-c2ccc3ncc(Cc4ccc5ncccc5c4)n3n2)cn1 | 95.2% |
| O=C(Nc1ccccc1)Nc1ccc(-c2ccc(C(=O)[C@@H]3CCC[C@H]3C(=O)O)cc2)cc1 | 101% |
| COc1ccc(C2(O)OC(=O)C(c3ccc4c(c3)OCO4)=C2Cc2cc(OC)c(OC)c(OC)c2)cc1 (stereo not shown) | 90.6% |
| COc1cc2cc3c4cc(OC)c(OC)cc4cc[n+]3c(C)c2cc1OC | 75.7% |
| Nc1cc(=O)[nH]c(N)n1 | 113% |
| COc1cc([C@H]2Oc3cc([C@H]4Oc5cc(O)cc(O)c5C(=O)[C@@H]4O)ccc3O[C@@H]2CO)ccc1O | 87.5% and 95.6% |
| CC(C)(C(=O)c1cccnc1)c1cccnc1 | 100% |
| COc1cc(Nc2ncc(F)c(Nc3ccc4c(n3)N(COP(=O)(O)O)C(=O)C(C)(C)O4)n2)cc(OC)c1OC | 102% |
| CC(C)[C@H](CO)Nc1nc(Nc2cc(N)cc(Cl)c2)c2ncn(C(C)C)c2n1 | 92.3% |
| CCCCC1C(=O)N(c2ccccc2)N(c2ccccc2)C1=O | 96.6% and 100% |
